Experimental data collected from several papers.
± gives the spread as reported.
ALB: Albumin (ALB, Bos taurus, UniProt P02769)
UniProt P02769, sequence (whole entry, looked up): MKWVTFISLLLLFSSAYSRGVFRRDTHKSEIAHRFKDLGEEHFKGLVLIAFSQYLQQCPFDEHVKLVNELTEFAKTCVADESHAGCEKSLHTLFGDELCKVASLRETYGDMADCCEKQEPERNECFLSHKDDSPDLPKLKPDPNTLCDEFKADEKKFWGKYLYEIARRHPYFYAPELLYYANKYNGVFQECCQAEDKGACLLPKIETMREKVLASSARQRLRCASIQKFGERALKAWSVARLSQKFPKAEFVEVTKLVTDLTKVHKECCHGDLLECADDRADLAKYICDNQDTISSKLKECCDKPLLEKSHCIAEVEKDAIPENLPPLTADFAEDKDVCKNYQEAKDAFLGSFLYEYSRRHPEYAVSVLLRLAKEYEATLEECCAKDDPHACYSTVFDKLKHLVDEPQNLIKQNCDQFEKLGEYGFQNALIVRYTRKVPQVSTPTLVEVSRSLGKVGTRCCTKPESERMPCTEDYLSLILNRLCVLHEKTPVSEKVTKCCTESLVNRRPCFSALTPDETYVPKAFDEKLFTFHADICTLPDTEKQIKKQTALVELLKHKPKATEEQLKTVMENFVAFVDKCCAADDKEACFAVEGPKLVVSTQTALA
UniProt P41765, sequence (whole entry, looked up): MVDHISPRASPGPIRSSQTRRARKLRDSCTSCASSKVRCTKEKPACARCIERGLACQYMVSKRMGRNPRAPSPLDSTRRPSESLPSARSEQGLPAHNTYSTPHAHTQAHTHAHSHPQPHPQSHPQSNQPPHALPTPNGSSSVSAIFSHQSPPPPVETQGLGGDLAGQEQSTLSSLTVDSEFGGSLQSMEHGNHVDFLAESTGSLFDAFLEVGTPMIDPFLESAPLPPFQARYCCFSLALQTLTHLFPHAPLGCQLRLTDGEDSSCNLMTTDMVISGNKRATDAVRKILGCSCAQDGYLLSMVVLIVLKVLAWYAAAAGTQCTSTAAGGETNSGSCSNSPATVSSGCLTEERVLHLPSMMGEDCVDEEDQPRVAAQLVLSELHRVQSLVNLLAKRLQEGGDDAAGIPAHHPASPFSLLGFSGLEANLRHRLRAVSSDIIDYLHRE
UniProt Q9JHG7, sequence (whole entry, looked up): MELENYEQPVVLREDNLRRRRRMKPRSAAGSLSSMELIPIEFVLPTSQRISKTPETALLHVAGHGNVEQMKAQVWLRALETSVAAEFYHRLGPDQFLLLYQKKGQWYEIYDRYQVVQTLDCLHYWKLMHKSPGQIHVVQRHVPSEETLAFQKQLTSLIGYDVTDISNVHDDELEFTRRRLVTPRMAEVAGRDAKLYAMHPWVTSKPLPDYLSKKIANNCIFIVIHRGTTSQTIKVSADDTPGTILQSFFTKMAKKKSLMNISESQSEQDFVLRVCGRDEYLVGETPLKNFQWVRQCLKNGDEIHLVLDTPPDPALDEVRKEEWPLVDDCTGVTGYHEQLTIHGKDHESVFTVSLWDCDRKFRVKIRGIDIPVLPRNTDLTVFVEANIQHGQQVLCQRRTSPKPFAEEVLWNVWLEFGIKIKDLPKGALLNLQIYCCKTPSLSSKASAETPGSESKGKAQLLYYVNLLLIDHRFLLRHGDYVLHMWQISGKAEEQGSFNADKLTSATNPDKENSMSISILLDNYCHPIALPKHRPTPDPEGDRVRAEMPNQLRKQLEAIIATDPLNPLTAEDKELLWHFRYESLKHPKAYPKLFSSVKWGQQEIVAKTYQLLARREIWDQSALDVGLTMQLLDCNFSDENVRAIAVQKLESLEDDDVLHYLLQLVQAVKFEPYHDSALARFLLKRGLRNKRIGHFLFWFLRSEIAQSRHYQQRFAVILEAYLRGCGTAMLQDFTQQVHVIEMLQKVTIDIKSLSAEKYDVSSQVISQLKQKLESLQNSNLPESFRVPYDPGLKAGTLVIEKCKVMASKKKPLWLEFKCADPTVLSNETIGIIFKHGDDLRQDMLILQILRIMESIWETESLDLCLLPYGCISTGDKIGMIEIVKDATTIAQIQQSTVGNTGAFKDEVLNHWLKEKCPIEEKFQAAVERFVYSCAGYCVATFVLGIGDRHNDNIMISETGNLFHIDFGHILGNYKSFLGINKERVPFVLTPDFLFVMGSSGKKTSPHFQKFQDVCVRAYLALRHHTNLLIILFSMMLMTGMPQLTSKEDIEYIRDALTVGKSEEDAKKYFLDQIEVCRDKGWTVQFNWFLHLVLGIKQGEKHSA

CN1CCN(c2ccc3[nH]c(-c4ccc5[nH]c(-c6ccc(OCCCCNC(=O)c7cccc8c7C(=O)OC87c8ccc(N(C)C)cc8[Si](C)(C)c8cc(N(C)C)ccc87)cc6)nc5c4)nc3c2)CC1  fluorescence quantum yield (ALB; PBS; 1 µM, 1 h, together with: 25 mg/mL albumin): 0.027 ± 0.003
CC(C)C[C@H](NC(=O)OCc1ccccc1)C(=O)N[C@@H](C[C@@H]1CCNC1=O)C(O)S(=O)(=O)[O-].[Na+] (some centres unmarked)  inhibition (Replicase polyprotein 1ab, main protease (rep, Porcine epidemic diarrhea virus, UniProt P0C6Y4); enzyme activity, inhibitor, FRET; 10 µM): 135%
CN1CCN(c2ccc3[nH]c(-c4ccc5[nH]c(-c6ccc(OCCCCNC(=O)c7ccc8c(c7)C(=O)OC87c8ccc(N(C)C)cc8[Si](C)(C)c8cc(N(C)C)ccc87)cc6)nc5c4)nc3c2)CC1  fluorescence quantum yield (ALB; PBS; 1 µM, 1 h, together with: 25 mg/mL albumin): 0.071 ± 0.004
CNCc1ccc2c(c1)N(C(=O)OCc1c(F)c(F)c(F)c(F)c1F)[C@H](CNC(=N)N)[C@H]2NC(=O)C(=O)Nc1ccc(Cl)c(F)c1  IC50 (env (Human immunodeficiency virus 1, UniProt C6ZIG9); pseudovirus infection, luciferase reporter; TZM-bl; 48 h): 8.73 µM
F[P-](F)(F)(F)(F)F.OC(Cn1cncn1)(Cn1cc(-[c-]2cccc2)nn1)c1ccc(F)cc1F.[Co+3].c1cc[cH-]c1 (racemic)  inhibition (Brugia pahangi; worm motility, Worminator; 50 µM, adult females): > 50%
TCAGATATTTGCGTCTCCGAGGAAAGAT (dsDNA)  binding (aflR 15-79 (Aspergillus flavus, UniProt P41765); EMSA; double-stranded DNA, one strand shown): no binding
CCCOC(=O)N1c2cc(CNC)ccc2[C@H](NC(=O)C(=O)Nc2ccc(Cl)c(F)c2)[C@H]1CNC(=N)N  IC50 (env (Human immunodeficiency virus 1, UniProt Q27Q59); pseudovirus infection, luciferase reporter; TZM-bl; 48 h): 0.056 µM
C[C@H](Nc1ncnc(N)c1C#N)c1c(-c2ccccc2)[nH]c2c(Cl)cccc2c1=O  IC50 (Phosphatidylinositol 4,5-bisphosphate 3-kinase catalytic subunit gamma isoform (Mus musculus, UniProt Q9JHG7); AKT phosphorylation, AlphaLISA; RAW264.7; together with: C5a): 3.04 µM
